Experimental data from different studies.
Lines come from different studies, so protocols differ. ± gives the spread as reported.
Adapter molecule crk SH2 domain: Adapter molecule crk, SH2 domain (Homo sapiens, UniProt P46108)
UniProt P46108, sequence (whole entry, looked up): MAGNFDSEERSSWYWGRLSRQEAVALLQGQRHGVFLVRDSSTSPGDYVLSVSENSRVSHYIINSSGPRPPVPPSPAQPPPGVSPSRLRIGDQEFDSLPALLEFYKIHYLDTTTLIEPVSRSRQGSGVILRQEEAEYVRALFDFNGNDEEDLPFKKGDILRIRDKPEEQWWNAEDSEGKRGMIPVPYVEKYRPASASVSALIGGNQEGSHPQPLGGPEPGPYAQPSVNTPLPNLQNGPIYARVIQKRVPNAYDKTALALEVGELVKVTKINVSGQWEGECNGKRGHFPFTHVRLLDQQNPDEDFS
ZAP70 SH2 domains: Tyrosine-protein kinase ZAP-70, SH2 domains (ZAP70, Homo sapiens, UniProt P43403)
UniProt P43403, sequence (whole entry, looked up): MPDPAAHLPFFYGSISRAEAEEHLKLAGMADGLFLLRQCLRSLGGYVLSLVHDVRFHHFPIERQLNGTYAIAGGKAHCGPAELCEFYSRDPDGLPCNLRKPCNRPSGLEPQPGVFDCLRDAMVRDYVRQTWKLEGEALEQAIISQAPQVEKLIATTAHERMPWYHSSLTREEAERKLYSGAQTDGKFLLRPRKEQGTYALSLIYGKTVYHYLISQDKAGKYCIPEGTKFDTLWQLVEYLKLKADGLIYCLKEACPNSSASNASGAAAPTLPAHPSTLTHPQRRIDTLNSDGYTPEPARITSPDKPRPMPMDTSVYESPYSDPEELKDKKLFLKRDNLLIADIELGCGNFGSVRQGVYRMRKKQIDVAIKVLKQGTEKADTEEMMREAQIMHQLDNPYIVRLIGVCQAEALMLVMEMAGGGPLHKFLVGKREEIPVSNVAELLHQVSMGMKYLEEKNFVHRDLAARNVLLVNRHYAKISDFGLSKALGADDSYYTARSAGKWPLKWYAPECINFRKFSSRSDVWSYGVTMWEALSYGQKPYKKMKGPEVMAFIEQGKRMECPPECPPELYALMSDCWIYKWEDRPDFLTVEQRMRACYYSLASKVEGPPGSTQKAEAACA
srtA: srtA (Staphylococcus aureus, UniProt Q2FV99)
UniProt P00512, sequence (whole entry, unmodified, looked up): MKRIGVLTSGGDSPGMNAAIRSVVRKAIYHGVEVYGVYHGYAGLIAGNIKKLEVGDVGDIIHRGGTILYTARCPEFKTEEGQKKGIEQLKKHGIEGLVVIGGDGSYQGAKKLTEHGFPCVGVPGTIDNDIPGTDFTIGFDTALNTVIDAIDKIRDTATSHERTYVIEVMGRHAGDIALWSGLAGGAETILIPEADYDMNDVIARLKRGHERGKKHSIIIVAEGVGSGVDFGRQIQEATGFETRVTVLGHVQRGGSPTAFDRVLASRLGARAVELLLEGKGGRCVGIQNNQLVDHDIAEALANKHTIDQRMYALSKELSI
UniProt P50750, sequence (whole entry, looked up): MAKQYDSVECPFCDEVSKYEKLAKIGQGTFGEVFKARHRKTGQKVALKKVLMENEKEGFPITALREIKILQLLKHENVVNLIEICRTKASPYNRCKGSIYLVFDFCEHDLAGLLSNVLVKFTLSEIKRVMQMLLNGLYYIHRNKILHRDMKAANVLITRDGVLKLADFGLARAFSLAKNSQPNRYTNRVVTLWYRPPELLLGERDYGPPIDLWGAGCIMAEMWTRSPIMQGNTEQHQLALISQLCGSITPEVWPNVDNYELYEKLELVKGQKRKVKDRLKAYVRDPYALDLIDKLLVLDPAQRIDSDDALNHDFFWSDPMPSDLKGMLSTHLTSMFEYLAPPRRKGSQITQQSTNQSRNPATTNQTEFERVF
UniProt Q92PC8, sequence (whole entry, looked up): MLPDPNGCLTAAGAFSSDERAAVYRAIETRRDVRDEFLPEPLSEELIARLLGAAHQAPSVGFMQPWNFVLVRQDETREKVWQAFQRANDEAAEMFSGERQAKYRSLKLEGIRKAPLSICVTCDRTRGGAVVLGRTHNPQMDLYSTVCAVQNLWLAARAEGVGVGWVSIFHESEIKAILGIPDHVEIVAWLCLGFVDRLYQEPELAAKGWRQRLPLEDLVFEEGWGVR
UniProt P08510, sequence (whole entry, unmodified, looked up): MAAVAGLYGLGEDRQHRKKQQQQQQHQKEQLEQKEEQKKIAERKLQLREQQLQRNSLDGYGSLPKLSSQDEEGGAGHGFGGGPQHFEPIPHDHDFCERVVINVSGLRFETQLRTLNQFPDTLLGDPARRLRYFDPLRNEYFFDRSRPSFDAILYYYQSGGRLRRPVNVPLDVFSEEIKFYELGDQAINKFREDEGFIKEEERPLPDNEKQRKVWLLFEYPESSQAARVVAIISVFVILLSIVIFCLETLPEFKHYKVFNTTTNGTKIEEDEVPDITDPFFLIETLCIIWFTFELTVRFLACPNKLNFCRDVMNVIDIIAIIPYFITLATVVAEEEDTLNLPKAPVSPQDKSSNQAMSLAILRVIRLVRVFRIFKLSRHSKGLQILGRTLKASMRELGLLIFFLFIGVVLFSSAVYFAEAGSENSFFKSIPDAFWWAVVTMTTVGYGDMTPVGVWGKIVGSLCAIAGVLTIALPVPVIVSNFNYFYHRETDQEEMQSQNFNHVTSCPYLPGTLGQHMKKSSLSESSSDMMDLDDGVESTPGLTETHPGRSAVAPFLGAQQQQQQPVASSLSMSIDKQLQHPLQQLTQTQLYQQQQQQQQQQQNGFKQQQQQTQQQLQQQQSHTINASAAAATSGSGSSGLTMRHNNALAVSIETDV
UniProt P19793, sequence (whole entry, looked up): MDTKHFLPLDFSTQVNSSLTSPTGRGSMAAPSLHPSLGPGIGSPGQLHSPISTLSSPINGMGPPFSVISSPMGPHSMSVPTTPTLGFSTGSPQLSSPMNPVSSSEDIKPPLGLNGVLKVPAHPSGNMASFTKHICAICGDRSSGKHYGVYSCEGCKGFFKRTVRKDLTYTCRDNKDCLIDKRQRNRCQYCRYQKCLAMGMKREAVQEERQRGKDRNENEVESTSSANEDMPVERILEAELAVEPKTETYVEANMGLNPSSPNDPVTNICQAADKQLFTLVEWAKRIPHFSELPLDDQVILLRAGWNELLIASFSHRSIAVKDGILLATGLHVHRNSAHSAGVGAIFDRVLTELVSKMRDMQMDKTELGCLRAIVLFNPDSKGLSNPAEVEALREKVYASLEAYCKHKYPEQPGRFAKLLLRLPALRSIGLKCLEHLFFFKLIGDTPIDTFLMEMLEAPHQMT
UniProt P52630, sequence (whole entry, looked up): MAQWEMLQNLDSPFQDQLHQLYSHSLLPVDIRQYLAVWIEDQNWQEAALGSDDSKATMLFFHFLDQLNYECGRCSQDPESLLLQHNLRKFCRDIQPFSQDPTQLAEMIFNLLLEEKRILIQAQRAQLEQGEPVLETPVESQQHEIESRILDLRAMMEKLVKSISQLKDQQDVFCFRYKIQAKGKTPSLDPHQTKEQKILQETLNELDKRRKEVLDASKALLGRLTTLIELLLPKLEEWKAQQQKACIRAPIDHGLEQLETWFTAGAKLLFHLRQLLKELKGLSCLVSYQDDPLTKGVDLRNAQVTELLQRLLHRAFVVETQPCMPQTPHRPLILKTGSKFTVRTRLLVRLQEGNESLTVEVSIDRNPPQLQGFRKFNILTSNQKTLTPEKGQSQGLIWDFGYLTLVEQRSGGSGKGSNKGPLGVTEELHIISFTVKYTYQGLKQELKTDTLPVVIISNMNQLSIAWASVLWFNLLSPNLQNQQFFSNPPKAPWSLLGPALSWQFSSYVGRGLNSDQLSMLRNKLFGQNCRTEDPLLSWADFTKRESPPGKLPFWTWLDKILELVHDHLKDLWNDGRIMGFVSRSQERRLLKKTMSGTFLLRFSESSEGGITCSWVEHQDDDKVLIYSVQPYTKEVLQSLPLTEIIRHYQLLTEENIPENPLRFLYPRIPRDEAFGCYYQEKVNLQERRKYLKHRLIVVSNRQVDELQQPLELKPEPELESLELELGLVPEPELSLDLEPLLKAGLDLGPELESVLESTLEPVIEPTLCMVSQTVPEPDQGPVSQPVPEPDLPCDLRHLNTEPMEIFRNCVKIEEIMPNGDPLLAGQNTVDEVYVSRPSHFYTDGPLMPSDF
UniProt P07700, sequence (whole entry, unmodified, looked up): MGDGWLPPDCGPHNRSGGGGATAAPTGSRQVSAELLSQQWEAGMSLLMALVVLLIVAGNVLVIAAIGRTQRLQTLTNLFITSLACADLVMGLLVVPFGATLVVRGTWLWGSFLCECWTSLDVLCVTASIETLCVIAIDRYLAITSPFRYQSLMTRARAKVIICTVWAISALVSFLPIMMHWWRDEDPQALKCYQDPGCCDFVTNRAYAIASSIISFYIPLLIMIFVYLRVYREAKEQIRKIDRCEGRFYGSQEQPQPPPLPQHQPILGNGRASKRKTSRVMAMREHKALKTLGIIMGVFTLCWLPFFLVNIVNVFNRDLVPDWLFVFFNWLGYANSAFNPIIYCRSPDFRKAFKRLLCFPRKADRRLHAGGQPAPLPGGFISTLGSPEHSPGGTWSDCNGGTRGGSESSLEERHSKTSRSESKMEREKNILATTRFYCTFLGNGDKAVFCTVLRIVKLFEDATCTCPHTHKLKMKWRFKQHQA

Structure (SMILES) | target | assay | system | setting | Kd [nM]
CC(C)C[C@H](NC(=O)[C@@H](NC(=O)[C@H](CO)NC(=O)[C@H](CO)NC(=O)[C@@H](NC(=O)[C@H](CC(=O)O)NC(=O)[C@H](CC(C)C)NC(=O)[C@@H]1CCCN1C(=O)[C@H](CO)NC(=O)c1ccc2c(c1)C(=O)OC21c2ccc(N(C)C)cc2Oc2cc(N(C)C)ccc21)[C@@H](C)O)C(C)C)C(=O)N[C@@H](Cc1ccc(OP(=O)(O)O)cc1)C(=O)N[C@H](C(=O)N[C@@H](C)C(=O)N[C@H](C(=O)N[C@@H](CCC(N)=O)C(=O)N1CCC[C@H]1C(=O)N[C@@H](CC(N)=O)C(=O)N[C@@H](CCC(=O)O)C(=O)N[C@@H](CC(=O)O)C(=O)O)C(C)C)[C@@H](C)O | Signal transducer and activator of transcription 2, SH2 domain (Homo sapiens, UniProt P52630) | binding |  |  | 997
O=C(CO)[C@@H](O)[C@H](O)[C@H](O)COP(=O)(O)O | pfkA (Geobacillus stearothermophilus, UniProt P00512, S159A) |  |  |  | 25000 ± 3000
CSCC[C@H](NC(=O)CNC(=O)[C@H](Cc1ccccc1)NC(=O)[C@H](CC(=O)O)NC(=O)CNC(=O)c1ccc2c(c1)C(=O)OC21c2ccc(N(C)C)cc2Oc2cc(N(C)C)ccc21)C(=O)N[C@@H](CO)C(=O)N[C@@H](CCCNC(=N)N)C(=O)N[C@@H](CC(=O)O)C(=O)N[C@H](C(=O)N[C@@H](Cc1ccc(OP(=O)(O)O)cc1)C(=O)N[C@@H](CO)C(=O)N[C@H](C(=O)N[C@@H](CC(=O)O)C(=O)N[C@@H](Cc1ccc(O)cc1)C(=O)N[C@@H](Cc1ccc(O)cc1)C(=O)N[C@@H](CCCNC(=N)N)C(=O)N[C@H](C(=O)N[C@@H](CC(=O)O)C(=O)O)C(C)C)[C@@H](C)O)C(C)C | Adapter molecule crk SH2 domain | binding |  |  | 902
CN(CC(=O)O)C(=N)NP(=O)(O)O | CKMT1A (Homo sapiens, UniProt P12532, D359N) | microscale thermophoresis |  | pH 7.0, D321N mutant, no substrate | 12000 ± 10000
Nc1nc2c(ncn2[C@@H]2O[C@H](COP(=O)(O)OP(=O)(O)OP(=O)(O)O)[C@@H](O)[C@H]2O)c(=O)[nH]1 | GTP 3',8-cyclase (moaA, Staphylococcus aureus, UniProt P69848) | binding, isothermal titration calorimetry |  |  | 3540 ± 810
COc1ccc(C[C@@H](C)NC[C@H](O)c2ccc(O)c3[nH]c(=O)ccc23)cc1 | ADRB1 (Meleagris gallopavo, UniProt P07700, A282L/C116L/F327A/F338M/M90V/R68S/Y227A) | binding, [3H]-CGP 12177 competition binding | CHO cells expressing ADRB1 β6-m23, whole cells |  | 1740
Cn1c2cccc(=O)c-2nc2ccccc21 | TetR-family regulator NalD (Pseudomonas aeruginosa, UniProt Q9HY46, F132A/N129A/V133A) |  |  |  | 117000
C=C(OP(=O)(O)O)C(=O)O | pfkA (Geobacillus stearothermophilus, UniProt P00512, D12A) |  |  |  | 450 ± 10
Cc1cc2nc3c(=O)[nH]c(=O)nc-3n(C[C@H](O)[C@H](O)[C@H](O)COP(=O)(O)O)c2cc1C | 5,6-dimethylbenzimidazole synthase (bluB, Rhizobium meliloti, UniProt Q92PC8) | binding | Sinorhizobium meliloti |  | 23000 ± 4000
C[C@H](NC(=O)[C@@H](NC(=O)[C@H](CO)NC(=O)[C@H](Cc1c[nH]cn1)NC(=O)[C@@H]1CCCN1C(=O)[C@H](CC(=O)O)NC(=O)[C@H](CCC(N)=O)NC(=O)[C@H](Cc1ccc(OP(=O)(O)O)cc1)NC(=O)[C@H](Cc1c[nH]cn1)NC(=O)[C@@H]1CCCN1C(=O)[C@H](CC(=O)O)NC(=O)[C@H](CCCNC(=N)N)NC(=O)[C@H](CO)NC(=O)[C@@H]1CCCN1C(=O)[C@H](C)NC(=O)[C@@H]1CCCN1C(=O)[C@H](CC(N)=O)NC(=O)c1ccc2c(c1)C(=O)OC21c2ccc(N(C)C)cc2Oc2cc(N(C)C)ccc21)[C@@H](C)O)C(=O)N[C@@H](CC(=O)O)C(=O)O | Adapter molecule crk SH2 domain | binding |  |  | 1230
CSCC[C@H](N)C(=O)N[C@@H](C)C(=O)N[C@@H](C)C(=O)N[C@H](C(=O)N[C@@H](C)C(=O)NCC(=O)N[C@@H](CC(C)C)C(=O)N[C@@H](Cc1ccc(O)cc1)C(=O)NCC(=O)N[C@@H](CC(C)C)C(=O)NCC(=O)N[C@@H](CCC(=O)O)C(=O)N[C@@H](CC(=O)O)C(=O)N[C@@H](CCCNC(=N)N)C(=O)N[C@@H](CCC(N)=O)C(=O)N[C@@H](Cc1c[nH]cn1)C(=O)N[C@@H](CCCNC(=N)N)C(=O)N[C@@H](CCCCN)C(=O)N[C@@H](CCCCN)C(=O)N[C@@H](CCC(N)=O)C(N)=O)C(C)C | Sh, DEL6-46 (Drosophila melanogaster, UniProt P08510) | ion current, blocker, inside-out patch clamp | Xenopus oocytes | range over 50 µM, pH 7.0, 22–24 °C, at 0 mV | 5100
CCCCc1cc2c(cc1C(=C1CC1)c1ccc(C(=O)O)cc1)C(C)(C)CCC2(C)C | RXRA (Homo sapiens, UniProt P19793) | binding, tryptophan fluorescence titration |  |  | 15
CSCC[C@H](NC(=O)[C@H](Cc1ccc(OP(=O)(O)O)cc1)NC(=O)CNC(=O)CNC(=O)[C@H](CC(=O)O)NC(=O)[C@H](CO)NC(=O)[C@H](CCC(=O)O)NC(=O)CNC(=O)[C@@H](NC(=O)[C@H](CC(C)C)NC(=O)[C@H](CO)NC(=O)c1ccc2c(c1)C(=O)OC21c2ccc(N(C)C)cc2Oc2cc(N(C)C)ccc21)[C@@H](C)O)C(=O)N[C@@H](CC(=O)O)C(=O)N[C@@H](CCSC)C(=O)N[C@@H](CO)C(=O)N[C@@H](CCCCN)C(=O)N[C@@H](CC(=O)O)C(=O)N[C@@H](CCC(=O)O)C(=O)N[C@@H](CC(=O)O)C(=O)O | ZAP70 SH2 domains | binding |  |  | 1260
Nc1ncnc2c1ncn2[C@@H]1O[C@H](COP(=O)(O)OP(=O)(O)O)[C@@H](O)[C@H]1O | Cell cycle histidine kinase CckA, R374A; cytoplasmic region (Caulobacter vibrioides, UniProt Q9X688, R374A) |  |  |  | 360000
CC[C@H](C)[C@H](NC(=O)[C@H](CCCNC(=N)N)NC(=O)CNC(=O)[C@H](Cc1c[nH]c2ccccc12)NC(=O)[C@@H]1CSC[C@@H](NC(=O)[C@H](Cc2ccc(O)cc2)NC(=O)[C@H](Cc2c[nH]c3ccccc23)NC(=O)[C@H](CC(C)C)NC(=O)CNC(=O)[C@H](CCCNC(=N)N)NC(=O)c2ccc3c(c2)C(=O)OC32c3ccc(O)cc3Oc3cc(O)ccc32)C(=O)N[C@@H](CC(C)C)C(=O)N[C@@H](CO)C(=O)N1)C(=O)NCC(=O)N[C@@H](CCCNC(=N)N)C(=O)N[C@@H](CCCNC(=N)N)C(=O)NCCCOCCOCCOCCCNC(=O)CCC(=O)NCCCOCCOCCOCCCNC(=O)CCC(=O)NCCCOCCOCCOCCCNC(=O)CCC(=O)N[C@@H](C)C(=O)O | srtA | binding, fluorescence polarization |  | pH 7.5 | 2980 ± 240
CC(C)C[C@H](NC(=O)[C@H](Cc1ccc(OP(=O)(O)O)cc1)NC(=O)[C@H](CCC(=O)O)NC(=O)[C@@H]1CCCN1C(=O)[C@H](CC(N)=O)NC(=O)CNC(=O)[C@@H](NC(=O)[C@H](C)NC(=O)[C@@H](NC(=O)[C@H](CO)NC(=O)[C@H](Cc1c[nH]cn1)NC(=O)c1ccc2c(c1)C(=O)OC21c2ccc(N(C)C)cc2Oc2cc(N(C)C)ccc21)[C@@H](C)O)C(C)C)C(=O)N[C@@H](CC(N)=O)C(=O)N[C@H](C(=O)N[C@H](C(=O)N[C@@H](CCC(N)=O)C(=O)N1CCC[C@H]1C(=O)N[C@H](C(=O)N[C@@H](CC(=O)O)C(=O)O)[C@@H](C)O)C(C)C)[C@@H](C)O | ZAP70 SH2 domains | binding |  |  | 1140
O=C1c2ccccc2C(=O)c2ccccc21 | Reaction center protein L chain, QB site (pufL, Cereibacter sphaeroides, UniProt P0C0Y8) | QB site binding, competitive inhibitor |  |  | > 100000
C[N+](C)(C)[C@@H](Cc1c[nH]c(=S)[nH]1)C(=O)[O-] | egtUBC (Streptococcus pneumoniae, UniProt A0A0H2ZQB9, K242A) | binding |  |  | > 100000
CO[C@@H]1[C@@H](OC(N)=O)[C@@H](O)[C@H](Oc2ccc3c(O)c(NC(=O)c4ccc(O)c(CC=C(C)C)c4)c(=O)oc3c2C)OC1(C)C | TetR-family regulator NalD (Pseudomonas aeruginosa, UniProt Q9HY46) | binding, surface plasmon resonance |  |  | ~3550
CC[C@H](CO)Nc1nc(NCc2ccc(-c3ccccn3)cc2)c2ncn(C(C)C)c2n1 | Cyclin-dependent kinase 9, with cyclin T1 (CDK9, Homo sapiens, UniProt P50750) | affinity chromatography competition | SH-SY5Y cell extract |  | 378
CC[C@H](C)[C@H](NC(=O)[C@H](CC(=O)O)NC(=O)[C@H](C)NC(=O)[C@H](Cc1ccc(OP(=O)(O)O)cc1)NC(=O)[C@H](CCCCN)NC(=O)[C@@H](NC(=O)[C@H](CC(=O)O)NC(=O)CNC(=O)[C@H](CCCCN)NC(=O)[C@H](CCSC)NC(=O)[C@H](CC(=O)O)NC(=O)[C@H](CC(C)C)NC(=O)[C@H](CCSC)NC(=O)c1ccc2c(c1)C(=O)OC21c2ccc(N(C)C)cc2Oc2cc(N(C)C)ccc21)C(C)C)C(=O)N[C@@H](CCC(=O)O)C(=O)N[C@@H](CO)C(=O)N[C@@H](CO)C(=O)N[C@@H](CC(N)=O)C(=O)N[C@@H](CC(=O)O)C(=O)O | ZAP70 SH2 domains | binding |  |  | 1260
CC[C@H](C)[C@H](NC(=O)[C@H](CCCNC(=N)N)NC(=O)CNC(=O)[C@H](Cc1c[nH]c2ccccc12)NC(=O)[C@@H]1CSC[C@@H](NC(=O)[C@H](Cc2ccc(O)cc2)NC(=O)[C@H](Cc2c[nH]c3ccccc23)NC(=O)[C@H](CC(C)C)NC(=O)CNC(=O)[C@H](CCCNC(=N)N)NC(=O)c2ccc3c(c2)C(=O)OC32c3ccc(O)cc3Oc3cc(O)ccc32)C(=O)N[C@@H](CC(C)C)C(=O)N[C@@H]([C@@H](C)O)C(=O)N1)C(=O)NCC(=O)N[C@@H](CCCNC(=N)N)C(=O)N[C@@H](CCCNC(=N)N)C(=O)NCCCOCCOCCOCCCNC(=O)CCC(=O)NCCCOCCOCCOCCCNC(=O)CCC(=O)NCCCOCCOCCOCCCNC(=O)CCC(=O)N[C@@H](C)C(=O)O | srtA | binding, fluorescence polarization |  | pH 7.5 | 32400 ± 2500

Some of these lines once more:
Structure (SMILES) | target | assay | system | setting | Kd [nM]
COc1ccc(C[C@@H](C)NC[C@H](O)c2ccc(O)c3[nH]c(=O)ccc23)cc1 | ADRB1 (Meleagris gallopavo, UniProt P07700, A282L/C116L/F327A/F338M/M90V/R68S/Y227A) | binding, [3H]-CGP 12177 competition binding | CHO cells expressing ADRB1 β6-m23, whole cells |  | 1740
CC(C)C[C@H](NC(=O)[C@H](Cc1ccc(OP(=O)(O)O)cc1)NC(=O)[C@H](CCC(=O)O)NC(=O)[C@@H]1CCCN1C(=O)[C@H](CC(N)=O)NC(=O)CNC(=O)[C@@H](NC(=O)[C@H](C)NC(=O)[C@@H](NC(=O)[C@H](CO)NC(=O)[C@H](Cc1c[nH]cn1)NC(=O)c1ccc2c(c1)C(=O)OC21c2ccc(N(C)C)cc2Oc2cc(N(C)C)ccc21)[C@@H](C)O)C(C)C)C(=O)N[C@@H](CC(N)=O)C(=O)N[C@H](C(=O)N[C@H](C(=O)N[C@@H](CCC(N)=O)C(=O)N1CCC[C@H]1C(=O)N[C@H](C(=O)N[C@@H](CC(=O)O)C(=O)O)[C@@H](C)O)C(C)C)[C@@H](C)O | ZAP70 SH2 domains | binding |  |  | 1140
Cc1cc2nc3c(=O)[nH]c(=O)nc-3n(C[C@H](O)[C@H](O)[C@H](O)COP(=O)(O)O)c2cc1C | 5,6-dimethylbenzimidazole synthase (bluB, Rhizobium meliloti, UniProt Q92PC8) | binding | Sinorhizobium meliloti |  | 23000 ± 4000
